Results from different studies.
Lines come from different studies, so protocols differ. Several values in a cell are separate wells, animals, samples, runs or records. ± marks the error that the study gave.
HDAC6 ZnF-UBD domain: Protein deacetylase HDAC6, ZnF-UBD domain (HDAC6, Homo sapiens, UniProt Q9UBN7)
UniProt Q9UBN7, sequence (whole entry, looked up): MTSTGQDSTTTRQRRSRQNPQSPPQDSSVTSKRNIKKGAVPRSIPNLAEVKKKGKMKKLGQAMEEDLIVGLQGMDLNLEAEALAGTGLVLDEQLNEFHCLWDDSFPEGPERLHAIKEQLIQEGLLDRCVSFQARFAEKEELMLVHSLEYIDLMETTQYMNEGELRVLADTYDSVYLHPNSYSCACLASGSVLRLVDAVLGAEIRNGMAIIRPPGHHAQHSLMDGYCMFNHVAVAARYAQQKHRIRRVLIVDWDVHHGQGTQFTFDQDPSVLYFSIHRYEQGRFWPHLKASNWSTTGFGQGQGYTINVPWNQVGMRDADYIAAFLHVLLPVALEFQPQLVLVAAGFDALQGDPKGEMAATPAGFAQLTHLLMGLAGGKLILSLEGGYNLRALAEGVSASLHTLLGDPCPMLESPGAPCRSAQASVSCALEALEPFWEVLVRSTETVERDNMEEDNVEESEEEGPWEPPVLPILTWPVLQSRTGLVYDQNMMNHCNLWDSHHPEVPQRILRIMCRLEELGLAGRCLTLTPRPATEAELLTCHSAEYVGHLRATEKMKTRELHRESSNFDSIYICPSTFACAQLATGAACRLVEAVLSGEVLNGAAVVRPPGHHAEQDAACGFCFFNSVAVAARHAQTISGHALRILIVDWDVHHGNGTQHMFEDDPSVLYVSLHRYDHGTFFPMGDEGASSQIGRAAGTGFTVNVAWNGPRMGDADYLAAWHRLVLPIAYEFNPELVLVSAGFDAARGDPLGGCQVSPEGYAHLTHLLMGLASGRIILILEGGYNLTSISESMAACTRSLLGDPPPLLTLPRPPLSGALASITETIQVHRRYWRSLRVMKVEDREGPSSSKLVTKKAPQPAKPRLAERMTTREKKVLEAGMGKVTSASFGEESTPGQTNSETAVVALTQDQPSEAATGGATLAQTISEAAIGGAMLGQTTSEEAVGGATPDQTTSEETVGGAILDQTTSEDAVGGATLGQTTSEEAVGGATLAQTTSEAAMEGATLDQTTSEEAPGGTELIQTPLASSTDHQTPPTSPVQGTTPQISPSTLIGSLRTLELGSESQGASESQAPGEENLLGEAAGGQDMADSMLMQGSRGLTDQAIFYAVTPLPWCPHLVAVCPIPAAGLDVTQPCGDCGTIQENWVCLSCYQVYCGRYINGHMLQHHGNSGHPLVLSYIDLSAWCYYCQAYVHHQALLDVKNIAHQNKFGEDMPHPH
UniProt P50613, sequence (whole entry, looked up): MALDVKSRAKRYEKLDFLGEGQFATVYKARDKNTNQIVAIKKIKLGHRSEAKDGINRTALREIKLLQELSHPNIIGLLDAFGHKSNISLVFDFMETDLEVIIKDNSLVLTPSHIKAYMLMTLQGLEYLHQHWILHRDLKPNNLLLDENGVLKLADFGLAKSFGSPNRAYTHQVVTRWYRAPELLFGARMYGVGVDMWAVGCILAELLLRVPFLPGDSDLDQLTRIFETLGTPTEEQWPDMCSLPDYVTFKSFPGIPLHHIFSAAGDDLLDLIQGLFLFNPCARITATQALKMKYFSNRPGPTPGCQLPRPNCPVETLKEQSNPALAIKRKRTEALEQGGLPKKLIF

Structure (SMILES) | target or system | test | system | setting | how to read | endpoint | result
COC(=O)c1ccc([C@@H]2COC[C@H](c3cnn(C)c3)N2)cc1 |  | shake-flask, LC-HRMS | aqueous buffer | 16 h, pH 6.8 |  | solubility | > 750 µM
O=S(=O)(c1ccc(-c2ccc3nccc(Nc4ccncn4)c3c2)cc1)N1CCOCC1 |  |  | female BALB/c mice, brain | intraperitoneal, 10 mg/kg, 0.08 h, mean |  | brain concentration | 87.4 ng/g
O=C(O)CNc1ccc2nncn2n1 | HDAC6 ZnF-UBD domain |  |  |  |  | Kd | 869 µM
OC[C@H]1O[C@@H](c2ccc(F)c(Cc3cc4ccccc4s3)c2)[C@H](O)[C@@H](O)[C@@H]1O |  |  | Japanese patients, type 1 diabetes | oral, 25 mg/day, onset day 7 | relative to: patients | hypoglycaemia-related adverse event | 3%
CNCc1ccc(-c2[nH]c3cc(F)cc4c3c2CCNC4=O)cc1 |  |  | human patients | oral, 600 mg twice daily, grade 1 |  | vomiting incidence | 30.8%
Cc1nc2cccc(OCC(C)(C)C(=O)NC(C)C)c2c(N)c1C(=O)O |  |  | Sprague-Dawley rat, female, plasma | oral, 30 mg/kg, day 7 over day 1, 7-day repeated dosing | relative to: day 7 over day 1 | Cmax ratio | 1.24 ± 0.84
CC[C@@H]1[C@H](F)C(=O)N[C@@H]1COc1nccc2cc(C(N)=O)c(OC)cc12 | CDK7 (Homo sapiens, UniProt P50613) | ATP-site probe binding, ActivX profiling | THP-1 cell lysate | 0.2 mM, Lys1 site |  | inhibition | -1.1%
CCNCCCNC/C=C\CNCCCNCC |  | LC-MS/MS | human cancer patients, plasma | intravenous infusion 60 min, 200 mg, median, cycle 1 |  | elimination rate constant | 5.07 h⁻¹
CCO[C@H]1CCN(Cc2c(OC)cc(C)c3[nH]ccc23)[C@H](c2ccc(C(=O)O)cc2)C1 |  |  | PNH patients, active haemolysis | oral, 100 mg, 8 weeks, treatment |  | incidence of flatulence | 14.3%
CCN1CCN(Cc2ccc(NC(=O)c3ccc(C)c(NC(=O)c4cncc(-c5cccs5)c4)c3)cc2C(F)(F)F)CC1 |  |  | C57BL/6 mice, epithelial lining fluid | intraperitoneal, 20 mg/kg |  | apparent volume of distribution | 8.26 L/kg
CC/C=C\C/C=C\C/C=C\C/C=C\C/C=C\C/C=C\CCC(=O)O.Cc1cc(/C=C/C#N)cc(C)c1Nc1ccnc(Nc2ccc(C#N)cc2)n1 |  |  | aqueous buffer | pH 1.2 |  | equilibrium solubility | 67.95 ± 0.41 µg/mL
CCC(CC)[C@@H]1COC[C@]2(CC[C@H](c3ccccc3)CC2)N1 |  | shake-flask, LC-HRMS | aqueous buffer | 16 h, pH 6.8 |  | solubility | < 4 µM
CNC(=O)c1cc(Oc2ccc(NC(=O)Nc3ccc(Cl)c(C(F)(F)F)c3)c(F)c2)ccn1 |  |  | mouse plasma | 750 ng/mL, 8 h, room temperature |  | short-term stability accuracy | 100%
CC(C)C[C@H](NC(=O)[C@@H](Cc1c[nH]c2ccccc12)NC(=O)[C@H](Cc1ccc(O)cc1)NC(=O)[C@H](CO)NC(=O)[C@H](Cc1c[nH]c2ccccc12)NC(=O)[C@H](Cc1c[nH]cn1)NC(=O)[C@@H]1CCC(=O)N1)C(=O)N[C@@H](CCCNC(=N)N)C(=O)N1CCC[C@H]1C(=O)NCC(N)=O |  |  | Chinese CPP children, girls | intramuscular, 22.5 mg, 12 months, day 1, month 6 |  | patients, drug-related metabolic TEAEs | 3.2%
CCN1/C(=C/C(C)=O)Sc2ccc(F)cc21 |  |  | cynomolgus monkey | oral, 30 mg/kg, 2 h post-dose | relative to: pre-dose | PR interval change | 97.4 ± 7.2%
COc1cc(C(=O)N2CCC3(CC2)CC(=O)c2c(cnn2C(C)C)C3)cc(-c2ccc(C(=O)O)cc2)n1 |  |  | human, fasting serum | 100 mg once daily, day 13, adjusted geometric mean |  | HDL cholesterol change from baseline | -10.7%
O=C(O)Cn1cnc2c(oc3ccccc32)c1=O | HDAC6 ZnF-UBD domain |  |  |  |  | Kd | 247 µM
Cc1cc([C@H]2C[C@H]3[C@@H](CF)SC(N)=N[C@@]3(c3ccc(F)cc3F)CO2)on1 |  |  | 129/SVE wild-type mouse, male | subcutaneous, 30 mg/kg, 3 h |  | CSF concentration | 170 nM
Cc1cccc(CNC(=O)c2cn(CCNC(=O)c3ccccc3S)c3cc4c(cc3c2=O)OC(F)(F)O4)n1 |  |  | Sprague-Dawley rat, male, plasma | intravenous, 5 mg/kg of parent drug |  | MRT(0-inf) | 48.6 ± 21 min
O=C(NO)c1ccc(CN(c2cnccn2)c2cnccn2)cc1 |  | refers to: decreased appetite | human | oral, dose not given, all dose cohorts, sample B patients |  | patients with adverse event | 20%
CCCCOC(=O)N1CCN(C(=O)[C@H](CP(=O)(O)O)NC(=O)c2cc(N3CC[C@H](OC)C3)nc(-c3ccccc3)n2)CC1 |  | refers to: Sodium | human, blood | 8 mg, 24 h |  | change from baseline | 0.2 ± 1.9 mmol/L
Cn1cc(-c2cn3nccc3c(-c3cnn([C@]4(CC#N)C[C@@H](C#N)C4)c3)n2)cn1 |  |  | healthy humans fed, plasma | 30 mg once daily, day 10, geometric mean |  | Cmin | 6.3 ng/mL
O=c1[nH]c(=O)n([C@@H]2O[C@H](CO)[C@@H](O)[C@@H]2F)cc1CCC[18F] |  |  | nude mice, RG2 tumour, spleen | intravenous, dose not given, 2 h |  | biodistribution | 0.16 ± 0.09 %ID/g
Cc1cc([C@H]2C[C@H]3[C@@H](C)SC(N)=N[C@@]3(c3ccc(F)cc3F)CO2)on1 |  |  | mouse | subcutaneous, 50 mg/kg, 18 h |  | CSF concentration | not detected
Cc1cc([C@@H](C)Nc2ccccc2C(=O)O)c2nc(N3CCC(F)(F)CC3)c(C#N)c(=O)n2c1 |  |  | NOD-SCID mice, HCC1954 xenograft | intraperitoneal, 60 mg/kg once daily, 1 h |  | concentration | 23400 ng/mL
NS(=O)(=O)c1cc(C(=O)O)c(NCc2ccco2)cc1Cl |  | refers to: gastrointestinal disorders | healthy men | oral, 8 days, treatment-emergent, crossover trial |  | subjects with adverse event | 0%

Structure (SMILES) | target or system | test | system | setting | how to read | endpoint | result
CC(C)CCC[C@@H](C)[C@H]1CC[C@H]2[C@@H]3C(O)CC4=CC(=O)CC[C@]4(C)[C@H]3CC[C@]12C (stereo partly drawn) |  |  | human, plasma | oral, dose not given, control |  | Cmin | 38.9 ± 6 nM
NC1(C(=O)N[C@@H](CCO)c2ccc(Cl)cc2)CCN(c2nc[nH]c3nccc2-3)CC1 |  |  | metastatic CRPC patients | 320 mg b.i.d., any grade, treatment-related, added: enzalutamide 160 mg daily |  | incidence of Dyspepsia | 0%
Cn1cc(Nc2nccc(-c3ccc4c(c3)CN(C3COC3)CC[C@H]4NC(=O)c3cn(C(C)(C)C)nn3)n2)cn1 |  |  | human, whole blood | 50 mg twice daily, day 7 | relative to: pre-dose baseline | monocyte count change | 26.6%
CCc1nc(C(N)=O)c(Nc2ccc(N3CCC(N4CCN(C)CC4)CC3)c(OC)c2)nc1NC1CCOCC1 |  |  | Japanese patients, plasma | oral, 20 mg, cycle 0 day -2, single dose, mean |  | Cmax | 15.3 ng/mL
CCCCCN1C[C@H](O)[C@@H](O)[C@H](O)[C@@H]1CO |  | LC-MS/MS, refers to: total compound | mouse Hexb-/-, plasma | oral, food admix, 300 mg/kg/day, about 75 days |  | average plasma concentration | 12.9 µM and ~13 µM
CNC(=O)c1cc(Oc2ccc(NC(=O)Nc3cc(C(C)(C)C)nn3-c3ccc4ncccc4c3)c(F)c2)ccn1 |  | refers to: musculoskeletal disorders, all grades | human patients | oral, dose not given, high Cmax subgroup, cycles 1-2 |  | patients with adverse events | 56%
NS(=O)(=O)c1ccc(NN=C2C(=O)Nc3ccc4[nH]nnc4c32)cc1 |  |  | aqueous buffer | pH 7.4 |  | solubility | < 1.53 µg/mL
CCOC(=O)N1C[C@@H](c2ccc(C(=O)OC)cc2)N[C@@H](c2cnc(-c3ccccc3)nc2)C1 |  | shake-flask, LC-HRMS | aqueous buffer | 16 h, pH 6.8 |  | solubility | < 4 µM
CCCCc1ccc(C#Cc2ccc(OCC)cc2)cc1 |  |  | rat, placenta | 5000 ng/mL in perfusate, high dose, mixture of 21 LCMs |  | placental accumulation | 347 ± 509 ng/g
CCOC(=O)N1C[C@@H](C2CCCC2)N[C@@H](c2ccc(C(F)(F)F)cc2)C1 |  | shake-flask, LC-HRMS | aqueous buffer | 16 h, pH 6.8 |  | solubility | < 4 µM
CC1(CNC(=O)[C@H](CN)NC(=O)c2ccc(C#Cc3ccccc3)cc2)NC(=O)NC1=O (stereo partly drawn) |  |  | aqueous buffer | pH 7.4 |  | solubility | 470 µg/mL
CCCC[C@H]1CC[C@H](c2ccc(C#N)cc2)CC1 |  |  | Sprague-Dawley rat, female, placenta | 1000 ng/mL in perfusate, 50 (unit not given), middle dose, mixture of 21 LCMs |  | placental accumulation | 20 ± 25.8 ng/g
Fc1ccc([C@@H]2COC[C@H](c3cccc(Br)c3)N2)cc1 |  | shake-flask, LC-HRMS | aqueous buffer | 16 h, pH 6.8 |  | solubility | < 4 µM
CCc1cc(C(=O)NC)c2nccc(N3CCc4c(cc(Cn5ccnc5)cc4-c4cn(C)nc4C(F)(F)F)C3=O)c2c1 |  |  | Sprague Dawley rats | oral, 50 mg/kg once daily, 7 days |  | serum TBA level | 21.1 ± 19.5 µmol/L
COc1ccc2c(c1)CN(C(=O)CCN1CCC(Cc3ccccc3)CC1)CC[S@@+]2[O-] |  | telemetry | conscious dog | intravenous, 4 mg/kg, 0.5 h |  | heart rate | 105 ± 18 beats/min
Cn1cc(-c2ccc(-c3cncc(Cl)c3N3CCC4(CCNC4=O)CC3)cc2)cn1 | COLO 205 | gene expression, microarray, refers to: GTF2IRD2 mRNA |  | concentration not given, 2 h | relative to: untreated cells | log2 fold change | 9.24
CCOc1c([C@H](C)n2nc(C)c3c(N)ncnc32)cc(Cl)c(F)c1[C@@H]1CNC(=O)C1 |  | refers to: QTcF > 500 ms | previously treated B-cell malignancy | oral, dose not given, all doses, overall population |  | share of ECG observations | 0%
Cc1cc(NC2CCN(C(=O)OC3CCN(C(=O)/C=C/CN(C)C)C3)CC2)n2ncc(C(C)C)c2n1 (stereo not drawn) |  | Phase I dose escalation CTCAE v4.0, refers to: abdominal distension | patients with advanced solid tumours | dose not given, TIW dosing any grade |  | patients with adverse event | 0%
N#Cc1ccc2c(c1)[C@H]1CCCN(C(=O)c3ccc4[nH]cnc4c3)[C@H]1C2 |  |  | human | 360 mg, day 7 | relative to: baseline | cortisol level change | -105 nmol/L
O=C1NCCc2nc(OCc3cccc(F)c3)ccc21 |  | refers to: Mydriasis | Sprague-Dawley rat male | oral, 100 mg/kg, 0 min | relative to: baseline, direction not given | Irwin test score | 0
Cc1c(-c2ccc(N3CCc4cccc(C(=O)Nc5nc6ccccc6s5)c4C3)nc2C(=O)O)cnn1CC12CC3(C)CC(C)(C1)CC(OCCNCC[C@H](O)CO)(C3)C2 |  |  | beagle dog, male, anaesthetised | intravenous infusion, 0.01 mg/kg/min, 120 min | relative to: baseline | mean arterial pressure change | 4 mmHg
O=c1[nH]c(=O)n([C@H]2C[C@H](O)[C@@H](CO)O2)cc1CCC[18F] |  |  | male CD-1 nu/nu mice, RG2 tumour, muscle | intravenous, dose not given, 2 h |  | biodistribution | 0.49 ± 0.19 %ID/g
CNC(=O)c1ccc(-c2cnc3ncc(Cc4ccc5ncccc5c4)n3n2)cc1F |  | CTCAE v4.0, any causality | human cancer patients | oral, dose not given, dose escalation |  | decreased appetite incidence (all grades) | 42%
C[C@@]1(C2CCOCC2)COC[C@@H](c2ccc(F)c(C#N)c2)N1 |  | shake-flask, LC-HRMS | aqueous buffer | 16 h, pH 6.8 |  | solubility | > 750 µM
Cc1c(C(=O)O)ccc2c3n(nc12)[C@@H]1[C@H](C3)N(CC2CC2)[C@@]2(C(=O)Nc3cc(Cl)ccc32)[C@H]1c1cccc(Cl)c1F |  |  | human patients phase Ia | oral, dose not given, all grades, all patients |  | decreased appetite incidence | 40.7%

For quick reference, copied from above:
Structure (SMILES) | target or system | test | system | setting | how to read | endpoint | result
CCCC[C@H]1CC[C@H](c2ccc(C#N)cc2)CC1 |  |  | Sprague-Dawley rat, female, placenta | 1000 ng/mL in perfusate, 50 (unit not given), middle dose, mixture of 21 LCMs |  | placental accumulation | 20 ± 25.8 ng/g
Fc1ccc([C@@H]2COC[C@H](c3cccc(Br)c3)N2)cc1 |  | shake-flask, LC-HRMS | aqueous buffer | 16 h, pH 6.8 |  | solubility | < 4 µM
CCc1cc(C(=O)NC)c2nccc(N3CCc4c(cc(Cn5ccnc5)cc4-c4cn(C)nc4C(F)(F)F)C3=O)c2c1 |  |  | Sprague Dawley rats | oral, 50 mg/kg once daily, 7 days |  | serum TBA level | 21.1 ± 19.5 µmol/L
COc1ccc2c(c1)CN(C(=O)CCN1CCC(Cc3ccccc3)CC1)CC[S@@+]2[O-] |  | telemetry | conscious dog | intravenous, 4 mg/kg, 0.5 h |  | heart rate | 105 ± 18 beats/min
Cn1cc(-c2ccc(-c3cncc(Cl)c3N3CCC4(CCNC4=O)CC3)cc2)cn1 | COLO 205 | gene expression, microarray, refers to: GTF2IRD2 mRNA |  | concentration not given, 2 h | relative to: untreated cells | log2 fold change | 9.24
